Published values from different studies.
Compare with care: the assays were run in different laboratories. ± marks the error that the study gave.
B1: csoR 1-119 (Mycobacterium tuberculosis, UniProt P9WP49); chain MSKELTAKKRAALNRLKTVRGHLDGIVRMLESDAYCVDVMKQISAVQSSLERANRVMLHNHLETCFSTAVLDGHGQAAIEELIDAVKFTPALTGPHARLGGAAVGESATEEPMPDASNM
B2: protein (Vibrio cholerae, UniProt A0A060KT36); chain MKDNSTSAVSSWLGYKIQEYRLTQRLLEANNSSCIGFEILDDLEEHTGSTSTFEQDKISTTGRNIVSNHSKDLWKTLSNWMDLIDSGEIDVDNTIFLLFTNKRCHSEVLQLLSTSQATEEASKAFDEILKIVSHPSPSIANYLNNFSKSKTDACRLISKFTYIYGSGSAPHDLRESYKLHRLGALEEHLDEIMYEILGWVSDVLTLAAEKRQPTIVRAKDFGARLGEIESKYRQKTILNYFCNRSSESEDVQNTIKDAPNYIKQLNLINVDDSELEEAAIANLETKDAVVEWTLNGDVQDYSYRYYQRELRRCWGIQKQKIHLDFNGRPETEVGQRLYIECLNNVTRYYLENKKVGDFFAHGTLHSMADKLTIGWHPEFDKKLGDPDA
B3: aba3 60-440 (Botrytis cinerea, UniProt A0A384JQC9); sequence looked up; chain KEHQDTWYYPPDIANDLQSINLPAELKGEIFACAWEYTRCVIPNYTNWNRYVAFMRIIIMGIIAEFRGEMVDVTASNNLLGYDLDATLAALFEGTPGHKEMAREYKTFLLITADKASERRDGELFRRYVNALAQSPRHWFRMRDCDALARFTIASALACNDLDDIWFTEDQFEILTEIGDTLYDAVAFYKHRAEGETNSTFAYMPEDLRIKAYSECREILWALDAAWARNPKLANVINFVRFFGGPIHMMMRRYRFVEENLTIGKSETDKVVDQTRKNFKLWNRVDANKRSVLNTQRYKALIARSEELMFPGLAEFLEMGGDGICDKCKYRESYGAELSHQFGGVELCSECRLSWRKYLECFVERATKVFPELKTHFEVPV
B4: protein 16-92 (Mycobacterium tuberculosis, UniProt P96276); chain EVADGLTRREHDILAFERQWWKFAGVKEEAIKELFSMSATRYYQVLNALVDRPEALAADPMLVKRLRRLRASRQKAR
B5: protein 16-102 (Mycobacterium tuberculosis, UniProt P96276); chain EVADGLTRREHDILAFERQWWKFAGVKEEAIKELFSMSATRYYQVLNALVDRPEALAADPMLVKRLRRLRASRQKARAARRLGFEVT

CC[C@H](C)[C@H](NC(=O)[C@H](CC(C)C)NC(=O)[C@H](CO)NC(=O)[C@H](Cc1c[nH]cn1)NC(=O)[C@@H](NC(=O)[C@H](CC(C)C)NC(=O)[C@H](CO)NC(=O)[C@@H](NC(=O)[C@H](Cc1ccc(O)cc1)NC(=O)[C@H](CC(N)=O)NC(=O)[C@H](CC(N)=O)NC(=O)[C@@H](NC(=O)[C@H](CCC(=O)O)NC(=O)[C@H](CCCNC(=N)N)NC(=O)[C@H](CC(=O)O)NC(=O)[C@H](Cc1c[nH]c2ccccc12)NC(=O)[C@H](CCC(=O)O)NC(=O)[C@H](CCSC)NC(=O)[C@H](Cc1c[nH]c2ccccc12)NC(C)=O)[C@@H](C)CC)[C@@H](C)O)[C@@H](C)CC)C(=O)N[C@@H](CCC(=O)O)C(=O)N[C@@H](CCC(=O)O)C(=O)N[C@@H](CO)C(=O)N[C@@H](CCC(N)=O)C(=O)N[C@@H](CC(N)=O)C(=O)N[C@@H](CCC(N)=O)C(=O)N[C@@H](CCC(N)=O)C(=O)N[C@@H](CCC(=O)O)C(=O)N[C@@H](CCCCN)C(=O)N[C@@H](CC(N)=O)C(=O)N[C@@H](CCC(=O)O)C(=O)N[C@@H](CCC(N)=O)C(=O)N[C@@H](CCC(=O)O)C(=O)N[C@@H](CC(C)C)C(=O)N[C@@H](CC(C)C)C(=O)NCC(=O)N[C@@H](CO)C(=O)NCC(=O)N[C@@H](CSCC(=O)O[C@H]1CC[C@@]2(C)C(=CC[C@H]3[C@@H]4CC[C@H]([C@H](C)CCCC(C)(C)O)[C@@]4(C)CC[C@@H]32)C1)C(N)=O
partition coefficient (Trp fluorescence; HIV-like lipid mixture vesicles; 5 µM, pH 7.4, 25 °C): 1240 ± 297

B1 (csoR 1-119)
subunits per oligomer (itself; native PAGE): 4

B2 (protein)
subunits per oligomer (itself; cryo-EM): 4

FolB (Mycobacterium tuberculosis, UniProt P9WNC5)
kcat (Nc1nc2c(c(=O)[nH]1)N=C([C@H](O)[C@@H](O)CO)CN2; steady-state kinetics; pH 7, 25 °C): 0.006 ± 0.0002 s⁻¹

cysH (Mycobacterium tuberculosis, UniProt P9WIK3)
kcat (Nc1ncnc2c1ncn2[C@@H]1O[C@H](COP(=O)(O)OS(=O)(=O)O)[C@@H](O)[C@H]1O; steady-state kinetics; pH 7.5): 0.13 ± 0.00667 s⁻¹

RLQSLQTY
positive donors (human PBMC CD8+ T cells; T cell response; peptide): 1 donors

p2o (Trametes ochracea, UniProt Q7ZA32)
kcat/Km (Nc1ccc2nc3ccc(N)cc3[s+]c2c1; steady-state kinetics; pH 6.5, 22 °C, apparent): 24000 M⁻¹ s⁻¹

B3 (aba3 60-440)
subunits per oligomer (itself; SEC): 2

B4 (protein 16-92)
subunits per oligomer (itself; crystal structure): 4

ELHLSWEVGKPRPPL
responding donors (human CD4 T cells; AIM; peptide): 8%

PaFS D92A (Diaporthe amygdali)
Km (CC(C)=CCC/C(C)=C/CC/C(C)=C/CO[P@@](=O)(O)OP(=O)(O)O; steady-state kinetics): 1.9 µM

B5 (protein 16-102)
subunits per oligomer (itself; mass photometry): 2

Some of these lines once more:
ELHLSWEVGKPRPPL
responding donors (human CD4 T cells; AIM; peptide): 8%

B2 (protein)
subunits per oligomer (itself; cryo-EM): 4
